# Experimental data pooled from the literature.
# ± gives the spread as reported.
# Inositol-tetrakisphosphate 1-kinase: Inositol-tetrakisphosphate 1-kinase (Homo sapiens, UniProt Q13572)
# Sequence of UniProt Q13572 (whole entry, looked up): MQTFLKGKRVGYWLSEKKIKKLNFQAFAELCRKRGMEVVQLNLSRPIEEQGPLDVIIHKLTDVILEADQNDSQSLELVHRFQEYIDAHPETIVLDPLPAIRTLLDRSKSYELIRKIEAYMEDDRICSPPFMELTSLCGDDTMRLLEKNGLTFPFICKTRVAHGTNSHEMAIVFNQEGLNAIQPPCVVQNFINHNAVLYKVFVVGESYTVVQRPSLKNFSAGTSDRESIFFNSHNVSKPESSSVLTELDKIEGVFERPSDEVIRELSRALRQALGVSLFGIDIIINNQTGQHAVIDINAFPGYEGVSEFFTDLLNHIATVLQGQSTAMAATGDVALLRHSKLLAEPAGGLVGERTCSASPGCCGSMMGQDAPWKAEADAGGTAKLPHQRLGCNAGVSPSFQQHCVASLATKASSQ
# CYP2A6: Cytochrome P450 2A6 (CYP2A6, Homo sapiens, UniProt P11509)
# Sequence of UniProt P11509 (whole entry, looked up): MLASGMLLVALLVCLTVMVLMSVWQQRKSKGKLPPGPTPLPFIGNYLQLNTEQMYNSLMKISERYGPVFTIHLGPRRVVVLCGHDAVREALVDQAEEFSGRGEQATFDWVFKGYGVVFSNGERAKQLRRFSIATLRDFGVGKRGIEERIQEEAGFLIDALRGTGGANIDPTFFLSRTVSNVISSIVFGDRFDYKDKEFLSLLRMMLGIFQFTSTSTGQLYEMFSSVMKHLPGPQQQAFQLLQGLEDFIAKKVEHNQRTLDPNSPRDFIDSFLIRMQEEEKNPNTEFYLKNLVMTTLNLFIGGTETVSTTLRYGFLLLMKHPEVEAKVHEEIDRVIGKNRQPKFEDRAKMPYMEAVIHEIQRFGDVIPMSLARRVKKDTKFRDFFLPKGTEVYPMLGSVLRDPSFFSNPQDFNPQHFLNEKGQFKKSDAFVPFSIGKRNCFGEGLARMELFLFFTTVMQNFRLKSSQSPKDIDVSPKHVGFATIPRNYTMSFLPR
# Ubiquitin carboxyl-terminal hydrolase 39 ZnF-UBD domain: Ubiquitin carboxyl-terminal hydrolase 39, ZnF-UBD domain (Homo sapiens, UniProt Q53GS9)
# Sequence of UniProt Q53GS9 (whole entry, looked up): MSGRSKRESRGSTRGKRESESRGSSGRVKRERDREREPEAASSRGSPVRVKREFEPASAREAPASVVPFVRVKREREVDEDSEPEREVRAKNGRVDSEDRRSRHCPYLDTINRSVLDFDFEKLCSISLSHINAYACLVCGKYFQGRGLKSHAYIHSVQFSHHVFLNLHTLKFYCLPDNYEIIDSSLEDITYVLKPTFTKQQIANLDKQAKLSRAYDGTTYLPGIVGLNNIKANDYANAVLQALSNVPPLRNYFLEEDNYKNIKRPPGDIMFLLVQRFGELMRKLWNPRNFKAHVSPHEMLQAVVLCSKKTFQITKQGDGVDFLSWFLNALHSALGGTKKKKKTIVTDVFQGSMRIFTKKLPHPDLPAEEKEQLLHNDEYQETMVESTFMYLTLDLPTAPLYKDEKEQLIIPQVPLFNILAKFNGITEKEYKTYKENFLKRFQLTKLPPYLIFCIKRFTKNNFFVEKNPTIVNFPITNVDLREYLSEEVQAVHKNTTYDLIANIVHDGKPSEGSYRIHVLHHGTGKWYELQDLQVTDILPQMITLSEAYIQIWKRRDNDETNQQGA
# Alpha-carbonic anhydrase: Alpha-carbonic anhydrase (Enterococcus faecium, UniProt Q3XYE8)
# Sequence of UniProt Q9Y616 (whole entry, looked up): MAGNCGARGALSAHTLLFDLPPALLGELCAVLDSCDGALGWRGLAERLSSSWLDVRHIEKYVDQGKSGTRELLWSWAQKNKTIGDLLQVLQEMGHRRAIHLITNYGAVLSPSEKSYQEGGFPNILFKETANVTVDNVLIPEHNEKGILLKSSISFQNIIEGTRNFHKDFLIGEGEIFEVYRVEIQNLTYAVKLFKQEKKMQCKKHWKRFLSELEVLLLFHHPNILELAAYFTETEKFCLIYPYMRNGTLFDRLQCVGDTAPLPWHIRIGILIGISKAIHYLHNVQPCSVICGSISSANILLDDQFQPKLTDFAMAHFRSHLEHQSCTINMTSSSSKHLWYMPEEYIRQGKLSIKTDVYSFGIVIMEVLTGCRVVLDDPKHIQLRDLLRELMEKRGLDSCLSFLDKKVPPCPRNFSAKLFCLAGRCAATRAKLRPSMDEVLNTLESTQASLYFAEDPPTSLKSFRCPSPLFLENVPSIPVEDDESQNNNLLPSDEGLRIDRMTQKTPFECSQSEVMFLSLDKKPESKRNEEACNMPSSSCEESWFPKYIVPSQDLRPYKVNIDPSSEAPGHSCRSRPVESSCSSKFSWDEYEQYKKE
# Sequence of UniProt Q9Y2K6 (whole entry, looked up): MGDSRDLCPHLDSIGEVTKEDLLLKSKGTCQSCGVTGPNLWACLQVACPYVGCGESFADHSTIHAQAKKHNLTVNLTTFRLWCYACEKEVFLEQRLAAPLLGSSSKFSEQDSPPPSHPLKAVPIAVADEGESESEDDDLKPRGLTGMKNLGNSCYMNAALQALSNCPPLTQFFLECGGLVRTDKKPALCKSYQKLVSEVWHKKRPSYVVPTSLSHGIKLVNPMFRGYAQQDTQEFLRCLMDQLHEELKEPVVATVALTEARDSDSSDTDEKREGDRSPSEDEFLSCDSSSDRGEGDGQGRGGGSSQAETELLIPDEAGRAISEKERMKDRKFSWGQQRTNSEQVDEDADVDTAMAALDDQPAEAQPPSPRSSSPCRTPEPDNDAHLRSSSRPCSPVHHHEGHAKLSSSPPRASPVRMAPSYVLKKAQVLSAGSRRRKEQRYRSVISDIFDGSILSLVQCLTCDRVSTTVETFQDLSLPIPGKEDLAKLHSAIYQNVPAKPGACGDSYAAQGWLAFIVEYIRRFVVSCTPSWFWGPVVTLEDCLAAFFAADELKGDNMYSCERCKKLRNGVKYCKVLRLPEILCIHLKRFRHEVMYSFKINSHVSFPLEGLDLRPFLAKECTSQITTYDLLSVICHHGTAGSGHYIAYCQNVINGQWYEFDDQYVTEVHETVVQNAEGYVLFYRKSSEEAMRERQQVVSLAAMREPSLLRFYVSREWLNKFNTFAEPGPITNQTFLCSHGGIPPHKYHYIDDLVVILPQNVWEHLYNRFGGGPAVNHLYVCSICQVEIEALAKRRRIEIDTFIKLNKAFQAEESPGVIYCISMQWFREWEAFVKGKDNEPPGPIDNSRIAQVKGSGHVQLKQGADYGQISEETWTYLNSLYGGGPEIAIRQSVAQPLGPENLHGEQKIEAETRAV
# Sequence of UniProt Q93009 (whole entry, unmodified, looked up): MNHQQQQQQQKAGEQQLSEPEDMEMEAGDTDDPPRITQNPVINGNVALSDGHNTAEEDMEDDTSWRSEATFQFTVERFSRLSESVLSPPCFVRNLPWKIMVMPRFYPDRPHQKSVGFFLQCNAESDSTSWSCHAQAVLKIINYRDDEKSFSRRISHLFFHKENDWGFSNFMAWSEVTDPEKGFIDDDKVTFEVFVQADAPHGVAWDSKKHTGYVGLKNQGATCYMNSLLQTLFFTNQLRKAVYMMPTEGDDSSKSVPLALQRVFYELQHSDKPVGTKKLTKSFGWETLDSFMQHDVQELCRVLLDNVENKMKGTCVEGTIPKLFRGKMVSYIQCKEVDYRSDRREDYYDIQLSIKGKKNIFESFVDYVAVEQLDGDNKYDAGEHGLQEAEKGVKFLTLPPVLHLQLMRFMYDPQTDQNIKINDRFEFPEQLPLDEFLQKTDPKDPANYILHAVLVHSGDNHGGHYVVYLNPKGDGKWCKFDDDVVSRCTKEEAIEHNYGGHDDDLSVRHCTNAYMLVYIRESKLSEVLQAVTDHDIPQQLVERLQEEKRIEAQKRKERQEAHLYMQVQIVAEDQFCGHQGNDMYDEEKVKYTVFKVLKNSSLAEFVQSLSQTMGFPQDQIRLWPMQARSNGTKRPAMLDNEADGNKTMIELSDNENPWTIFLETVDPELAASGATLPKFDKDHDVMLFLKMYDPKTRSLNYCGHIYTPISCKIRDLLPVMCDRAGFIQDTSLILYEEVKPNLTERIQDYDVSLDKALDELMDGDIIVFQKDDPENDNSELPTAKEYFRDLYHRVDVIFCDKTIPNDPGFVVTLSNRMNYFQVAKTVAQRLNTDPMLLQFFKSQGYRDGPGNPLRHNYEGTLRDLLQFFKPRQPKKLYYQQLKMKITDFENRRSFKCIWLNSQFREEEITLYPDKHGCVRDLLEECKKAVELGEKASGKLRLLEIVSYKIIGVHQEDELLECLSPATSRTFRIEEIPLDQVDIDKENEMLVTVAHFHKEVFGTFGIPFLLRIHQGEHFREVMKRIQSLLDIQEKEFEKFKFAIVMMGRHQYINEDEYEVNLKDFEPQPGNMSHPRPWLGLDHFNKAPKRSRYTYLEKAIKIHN
# Sequence of UniProt Q3K9A2 (whole entry, looked up): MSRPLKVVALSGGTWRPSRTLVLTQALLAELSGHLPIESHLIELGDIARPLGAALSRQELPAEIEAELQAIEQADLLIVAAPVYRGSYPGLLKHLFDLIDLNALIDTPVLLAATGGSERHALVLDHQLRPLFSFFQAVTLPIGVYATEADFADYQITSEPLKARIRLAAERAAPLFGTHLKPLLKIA
# Sequence of UniProt P31641 (whole entry, unmodified, looked up): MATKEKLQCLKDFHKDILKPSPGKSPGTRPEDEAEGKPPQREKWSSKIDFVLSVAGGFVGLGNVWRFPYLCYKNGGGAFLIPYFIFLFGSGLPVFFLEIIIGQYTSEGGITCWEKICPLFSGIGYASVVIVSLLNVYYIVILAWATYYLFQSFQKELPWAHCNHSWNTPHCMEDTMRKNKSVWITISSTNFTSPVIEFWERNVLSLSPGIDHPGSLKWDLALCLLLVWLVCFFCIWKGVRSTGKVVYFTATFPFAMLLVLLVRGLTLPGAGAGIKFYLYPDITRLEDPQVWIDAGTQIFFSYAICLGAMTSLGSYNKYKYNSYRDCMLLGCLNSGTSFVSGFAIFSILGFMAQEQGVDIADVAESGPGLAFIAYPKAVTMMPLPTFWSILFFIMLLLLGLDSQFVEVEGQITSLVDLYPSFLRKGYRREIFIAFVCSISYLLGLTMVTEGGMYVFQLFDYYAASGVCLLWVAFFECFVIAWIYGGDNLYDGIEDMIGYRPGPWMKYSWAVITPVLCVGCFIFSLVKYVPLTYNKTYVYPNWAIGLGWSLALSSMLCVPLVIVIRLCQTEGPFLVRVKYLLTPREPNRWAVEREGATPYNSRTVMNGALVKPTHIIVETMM
SMILES,target,test,system,conditions,scale,endpoint,value
CCCCCCCCCCCCCCCC(=O)O,"uncharacterized protein (Solanum lycopersicum, UniProt A0A3Q7EJP1)","binding, tyrosine fluorescence quenching",,Stern-Volmer approximation,,Kd,5.8 ± 0.2 µM
[H]/N=C(/N)NCC(=O)O,"Sodium- and chloride-dependent taurine transporter (SLC6A6, Homo sapiens, UniProt P31641, G62A)",microscale thermophoresis,,G62A mutant,,Kd,no binding
Nc1ncnc2c1ncn2[C@@H]1O[C@H](CO)[C@@H](O)[C@@H]1F,Inositol-tetrakisphosphate 1-kinase,binding,,,,Kd,0.55 ± 0.13 µM
OC(CCc1ccc(Cl)cc1)Cn1ccnc1 (stereo not shown),CYP2A6,binding,,"20 min, pH 7.4, purified protein, 2% DMSO",,Kd,90.2 µM
O=C(O)CCN1C(=O)c2ccccc2S1(=O)=O,Ubiquitin carboxyl-terminal hydrolase 39 ZnF-UBD domain,,,,,Kd,> 1000 µM
CC[C@@H]1[C@H](F)C(=O)N[C@@H]1COc1nccc2cc(C(N)=O)c(OC)cc12,"Interleukin-1 receptor-associated kinase 3 (IRAK3, Homo sapiens, UniProt Q9Y616)","ATP-site probe binding, inhibitor, ActivX ATP probe profiling",THP-1 cell lysate,probe site Lys1,,IC50,0.072 µM
Fc1ccc(NC(=S)NCCCn2ccnc2)c(F)c1,CYP2A6,binding,,"20 min, pH 7.4, purified protein, 2% DMSO",,Kd,13.7 µM
CC1CCCC(CC(=O)Nc2nnc(S(N)(=O)=O)s2)C1 (stereo not shown),Alpha-carbonic anhydrase,"CO2 hydration, inhibitor, stopped-flow kinetics",,,,Ki,0.0209 µM
O=C(O)CNc1ncccn1,Ubiquitin carboxyl-terminal hydrolase 39 ZnF-UBD domain,,,,,Kd,> 1000 µM
CC(C)(C)CCC(=O)Nc1nnc(S(N)(=O)=O)s1,Alpha-carbonic anhydrase,"CO2 hydration, inhibitor, stopped-flow kinetics",,,,Ki,0.0659 µM
C[C@H](Cc1ccccc1)Nc1ncnc2c1ncn2[C@@H]1O[C@H](CO)[C@@H](O)[C@H]1O,"adenosine A1 receptor, sheep",competition binding,striatum membranes,"first site, dimer model, together with: 0.009 nM [3H]DPCPX",,Kd,2e-05 ± 1e-05 µM
c1ccc(COc2[nH]cnc3ncnc2-3)cc1,Inositol-tetrakisphosphate 1-kinase,binding,,,,Kd,1.7 ± 0.7 µM
O=C(O)Cn1cnc2ccccc2c1=O,Ubiquitin carboxyl-terminal hydrolase 39 ZnF-UBD domain,,,,,Kd,> 1000 µM
Oc1ccc(-c2nc(-c3ccc(OC4CCCC4)cc3)no2)cc1,"Germination protease CspA (Clostridioides difficile, UniProt Q185B9)",,,,,Kd,> 200 µM
Nc1[nH]ncc1-c1ccccc1,CYP2A6,binding,,"20 min, pH 7.4, purified protein, 2% DMSO",,Kd,4.4 µM
COC(=O)C[C@@H]1N=C(c2ccc(Cl)cc2)c2c(sc(C(=O)NCCOCCNC(=O)C[C@@H]3N=C(c4ccc(Cl)cc4)c4c(sc(C)c4C)-n4c(C)nnc43)c2C)-n2c(C)nnc21,"Bromodomain-containing protein 3, tandem BD1-BD2 (BRD3, Homo sapiens, UniProt Q15059)",,,,,Kd,0.00011 µM
CC(C)(C)c1ccc(S(=O)(=O)Nc2ccc(-n3ccnc3)cc2)cc1,CYP2A6,binding,,"20 min, pH 7.4, purified protein, 2% DMSO",,Kd,5.94 µM
O=C(O)CN1Cc2ccccc2C1=O,"Ubiquitin carboxyl-terminal hydrolase 49, ZnF-UBD domain (USP49, Homo sapiens, UniProt Q70CQ1)",,,,,Kd,525 µM
OC[C@@H]1CO[C@](Cn2ccnc2)(c2ccc(Cl)cc2Cl)O1 (relative stereo),CYP2A6,binding,,"20 min, pH 7.4, purified protein, 2% DMSO",,Kd,83 µM
O=C(O)COc1cnc2ccccc2n1,"Ubiquitin carboxyl-terminal hydrolase 20, ZnF-UBD domain (USP20, Homo sapiens, UniProt Q9Y2K6)",,,,,Kd,> 1000 µM
Cc1cc2nc3c(=O)[nH]c(=O)nc-3n(C[C@H](O)[C@H](O)[C@H](O)COP(=O)(O)O)c2cc1C,"NADH-dependent FMN reductase SfnF (sfnF, Pseudomonas fluorescens, UniProt Q3K9A2)",surface plasmon resonance,,,steady-state affinity,Kd,0.756 µM
O=C(O)CNc1ncnc2ccccc12,Ubiquitin carboxyl-terminal hydrolase 39 ZnF-UBD domain,,,,,Kd,> 1000 µM
Cc1cc2nc3c(=O)[nH]c(=O)nc-3n(C[C@H](O)[C@H](O)[C@H](O)COP(=O)(O)OP(=O)(O)OC[C@H]3O[C@@H](n4cnc5c(N)ncnc54)[C@H](O)[C@@H]3O)c2cc1C,"Flavin reductase (NADPH) (BLVRB, Homo sapiens, UniProt P30043)","binding, NMR HSQC titration",,,,Kd,~58 µM
O=C(O)Cc1nc2ccccc2[nH]1,Ubiquitin carboxyl-terminal hydrolase 39 ZnF-UBD domain,,,,,Kd,> 1000 µM
O=C(C[C@@H](C(F)F)n1ccc(F)n1)N1CCC(O)(Cn2cnc3c(cnn3-c3ccc(F)cc3)c2=O)CC1,"Ubiquitin carboxyl-terminal hydrolase 7 (USP7, Homo sapiens, UniProt Q93009, V517A)",isothermal titration calorimetry,,USP7 V517A,,Kd,0.039 ± 0.012 µM

# Excerpt of the above:
SMILES,target,test,system,conditions,scale,endpoint,value
CC(C)(C)CCC(=O)Nc1nnc(S(N)(=O)=O)s1,Alpha-carbonic anhydrase,"CO2 hydration, inhibitor, stopped-flow kinetics",,,,Ki,0.0659 µM
C[C@H](Cc1ccccc1)Nc1ncnc2c1ncn2[C@@H]1O[C@H](CO)[C@@H](O)[C@H]1O,"adenosine A1 receptor, sheep",competition binding,striatum membranes,"first site, dimer model, together with: 0.009 nM [3H]DPCPX",,Kd,2e-05 ± 1e-05 µM
c1ccc(COc2[nH]cnc3ncnc2-3)cc1,Inositol-tetrakisphosphate 1-kinase,binding,,,,Kd,1.7 ± 0.7 µM
O=C(O)Cn1cnc2ccccc2c1=O,Ubiquitin carboxyl-terminal hydrolase 39 ZnF-UBD domain,,,,,Kd,> 1000 µM
